Assay results of several laboratories.
Parts stem from different laboratories: compare values within a part only.

Sample 1
Target: Sal-like protein 4, full length isoform B (SALL4, Homo sapiens, UniProt Q9UJQ4-2, residues 1-616)
Method: universal PBM
Molecule type: double-stranded DNA, one strand shown
Matrix: in vitro
Concentration: not given
Setting: 8-mer, flanks averaged, mean of replicates
Direction: higher = stronger binding
Oligonucleotide	E-score
CCAGGCCA	-0.347
AAGGGCGG	-0.25
CGCAACTA	-0.0219
AACGTGAT	0.155
CCTTATAG	0.255
GCTCTGAC	-0.202
GAACAAAA	0.182

Sample 2
Target: Histone acetyltransferase KAT6A, winged helix 2, GST fusion (KAT6A, Homo sapiens, UniProt Q92794, residues 85-181)
Method: protein binding microarray
Molecule type: double-stranded DNA, one strand shown
Matrix: in vitro
Concentration: not given
Setting: 8-mer, flanks averaged, mean of 2 arrays, mostly near background
Relative to: not given
Direction: higher = stronger binding
Construct (chain): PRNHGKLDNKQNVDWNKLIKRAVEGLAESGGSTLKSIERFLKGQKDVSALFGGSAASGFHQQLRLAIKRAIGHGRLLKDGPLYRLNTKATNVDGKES
Oligonucleotide	E-score
CTTAACCA	-0.0961
CCAATGAA	-0.183
AATGCTCG	0.0794

Sample 3
Target: Interferon regulatory factor 7, full length, phosphomimetic (IRF7, Homo sapiens, UniProt Q92985, residues 1-503, S471D/S472D/S475D/S476D/S477D/S483D/S484D/S487D)
Method: protein-binding microarray
Molecule type: double-stranded DNA, one strand shown
Matrix: in vitro
Concentration: 2200 nM top
Setting: 60-bp whole probe
With: salmon DNA 0.4 mg/ml
Relative to: random background probes
Direction: higher = stronger binding
All sequences stand within: GCCTAGCAC … GTCTTGATTCGCTTGACGCTGCTG
Residues (chain): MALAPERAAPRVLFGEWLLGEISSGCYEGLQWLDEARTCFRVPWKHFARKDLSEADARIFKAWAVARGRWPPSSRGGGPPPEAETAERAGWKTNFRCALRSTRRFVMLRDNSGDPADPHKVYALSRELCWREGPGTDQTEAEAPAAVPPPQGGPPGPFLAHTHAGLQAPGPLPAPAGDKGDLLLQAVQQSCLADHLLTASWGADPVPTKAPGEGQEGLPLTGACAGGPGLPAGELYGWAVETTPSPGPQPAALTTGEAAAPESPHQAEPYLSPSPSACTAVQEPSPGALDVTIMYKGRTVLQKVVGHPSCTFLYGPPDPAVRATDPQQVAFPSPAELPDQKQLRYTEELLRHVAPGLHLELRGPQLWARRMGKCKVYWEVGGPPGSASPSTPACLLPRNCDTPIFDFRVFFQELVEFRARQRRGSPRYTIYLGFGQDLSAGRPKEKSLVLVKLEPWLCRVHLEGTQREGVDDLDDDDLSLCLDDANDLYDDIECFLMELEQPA
Oligonucleotide	fitted relative affinity [z-score]
TTAGGTTCCGGGTTCGGTTAGTGCTAG	2.66
TTAGGACTGTTACTGCTTTAGTGCTAG	0.296
CATTTTCTGAATGTCCTCCTGTGCTAG	4.98
TTAGATTTTGGGTTTCGATTAGTGCTA	3.17
TCACCTCTAGACTCTAAAACTGTGCTA	0.812

Further values, each from its own experiment
Molecule	target	test	system	conditions	how to read	endpoint	result
PhoQ, residues 284 288 289 292 302 303 SVHLDV	PhoP, residues 12 14 15 18 19 NMSFL (Escherichia coli, UniProt P23836)	Sort-seq, item: YFP reporter	E. coli	PhoQ-PhoP variant library, with: 10 µM Mg2+	relative to: high Mg2+ state, higher = stronger signaling	fold induction	22

Some of these lines once more (further values, each from its own experiment):
Molecule	target	test	system	conditions	how to read	endpoint	result
PhoQ, residues 284 288 289 292 302 303 SVHLDV	PhoP, residues 12 14 15 18 19 NMSFL (Escherichia coli, UniProt P23836)	Sort-seq, item: YFP reporter	E. coli	PhoQ-PhoP variant library, with: 10 µM Mg2+	relative to: high Mg2+ state, higher = stronger signaling	fold induction	22
